{"data": "Published values collected from several papers", "note": "Parts stem from different laboratories: compare values within a part only.", "chain of UniProt Q9NWZ3 (whole entry, looked up)": "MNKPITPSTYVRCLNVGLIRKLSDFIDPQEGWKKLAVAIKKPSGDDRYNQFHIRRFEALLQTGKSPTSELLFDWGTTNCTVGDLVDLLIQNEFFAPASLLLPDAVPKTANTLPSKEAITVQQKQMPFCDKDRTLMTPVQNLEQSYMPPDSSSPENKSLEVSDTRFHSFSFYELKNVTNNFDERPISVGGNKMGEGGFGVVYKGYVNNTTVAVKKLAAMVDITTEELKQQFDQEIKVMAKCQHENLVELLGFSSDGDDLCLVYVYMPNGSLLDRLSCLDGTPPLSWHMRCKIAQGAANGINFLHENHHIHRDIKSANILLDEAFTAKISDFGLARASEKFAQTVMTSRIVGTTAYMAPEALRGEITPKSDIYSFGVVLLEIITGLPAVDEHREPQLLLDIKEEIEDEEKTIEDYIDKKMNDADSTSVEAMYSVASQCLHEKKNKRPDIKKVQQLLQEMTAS", "chain of UniProt O43353 (whole entry, looked up)": "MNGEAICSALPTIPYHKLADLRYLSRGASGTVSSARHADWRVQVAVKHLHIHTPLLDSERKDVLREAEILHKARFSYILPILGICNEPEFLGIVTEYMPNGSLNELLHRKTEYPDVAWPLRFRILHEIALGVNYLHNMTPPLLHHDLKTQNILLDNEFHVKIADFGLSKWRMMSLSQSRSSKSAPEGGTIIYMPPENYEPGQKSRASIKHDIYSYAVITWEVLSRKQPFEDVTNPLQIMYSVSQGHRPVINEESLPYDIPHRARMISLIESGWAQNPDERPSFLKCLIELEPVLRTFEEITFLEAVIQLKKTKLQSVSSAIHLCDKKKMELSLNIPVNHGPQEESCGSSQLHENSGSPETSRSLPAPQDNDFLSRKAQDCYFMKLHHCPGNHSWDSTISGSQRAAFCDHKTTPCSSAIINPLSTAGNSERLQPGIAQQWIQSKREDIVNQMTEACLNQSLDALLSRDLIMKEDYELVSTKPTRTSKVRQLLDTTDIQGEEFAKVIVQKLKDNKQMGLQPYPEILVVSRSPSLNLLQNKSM", "chain of UniProt P10721 (whole entry, looked up)": "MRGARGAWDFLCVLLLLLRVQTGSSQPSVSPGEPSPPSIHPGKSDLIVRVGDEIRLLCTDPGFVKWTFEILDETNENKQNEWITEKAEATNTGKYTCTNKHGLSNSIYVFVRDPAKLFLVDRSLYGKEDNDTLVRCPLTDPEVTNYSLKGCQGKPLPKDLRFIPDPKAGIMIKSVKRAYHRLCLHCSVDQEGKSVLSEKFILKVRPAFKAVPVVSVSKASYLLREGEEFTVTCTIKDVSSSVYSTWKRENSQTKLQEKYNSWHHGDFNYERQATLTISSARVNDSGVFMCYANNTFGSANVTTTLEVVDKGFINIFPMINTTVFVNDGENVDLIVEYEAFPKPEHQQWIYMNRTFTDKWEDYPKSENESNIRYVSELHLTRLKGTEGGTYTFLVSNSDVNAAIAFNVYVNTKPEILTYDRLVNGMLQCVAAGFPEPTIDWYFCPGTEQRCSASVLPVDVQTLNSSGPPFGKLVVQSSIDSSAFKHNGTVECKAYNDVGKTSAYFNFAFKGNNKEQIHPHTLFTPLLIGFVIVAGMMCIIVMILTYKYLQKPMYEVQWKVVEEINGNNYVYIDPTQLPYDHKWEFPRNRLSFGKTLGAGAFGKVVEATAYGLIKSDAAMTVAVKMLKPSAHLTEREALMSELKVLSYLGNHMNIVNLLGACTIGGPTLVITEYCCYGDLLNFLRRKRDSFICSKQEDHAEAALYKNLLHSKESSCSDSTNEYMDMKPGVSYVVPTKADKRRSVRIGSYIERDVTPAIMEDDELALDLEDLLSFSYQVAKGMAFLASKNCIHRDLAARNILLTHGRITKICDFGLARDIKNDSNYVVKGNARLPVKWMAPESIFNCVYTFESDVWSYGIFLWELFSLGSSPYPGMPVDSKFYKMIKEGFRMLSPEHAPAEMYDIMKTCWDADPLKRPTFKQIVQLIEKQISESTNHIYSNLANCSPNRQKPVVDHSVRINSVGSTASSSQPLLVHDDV", "chain of UniProt Q9UKE5 (whole entry, looked up)": "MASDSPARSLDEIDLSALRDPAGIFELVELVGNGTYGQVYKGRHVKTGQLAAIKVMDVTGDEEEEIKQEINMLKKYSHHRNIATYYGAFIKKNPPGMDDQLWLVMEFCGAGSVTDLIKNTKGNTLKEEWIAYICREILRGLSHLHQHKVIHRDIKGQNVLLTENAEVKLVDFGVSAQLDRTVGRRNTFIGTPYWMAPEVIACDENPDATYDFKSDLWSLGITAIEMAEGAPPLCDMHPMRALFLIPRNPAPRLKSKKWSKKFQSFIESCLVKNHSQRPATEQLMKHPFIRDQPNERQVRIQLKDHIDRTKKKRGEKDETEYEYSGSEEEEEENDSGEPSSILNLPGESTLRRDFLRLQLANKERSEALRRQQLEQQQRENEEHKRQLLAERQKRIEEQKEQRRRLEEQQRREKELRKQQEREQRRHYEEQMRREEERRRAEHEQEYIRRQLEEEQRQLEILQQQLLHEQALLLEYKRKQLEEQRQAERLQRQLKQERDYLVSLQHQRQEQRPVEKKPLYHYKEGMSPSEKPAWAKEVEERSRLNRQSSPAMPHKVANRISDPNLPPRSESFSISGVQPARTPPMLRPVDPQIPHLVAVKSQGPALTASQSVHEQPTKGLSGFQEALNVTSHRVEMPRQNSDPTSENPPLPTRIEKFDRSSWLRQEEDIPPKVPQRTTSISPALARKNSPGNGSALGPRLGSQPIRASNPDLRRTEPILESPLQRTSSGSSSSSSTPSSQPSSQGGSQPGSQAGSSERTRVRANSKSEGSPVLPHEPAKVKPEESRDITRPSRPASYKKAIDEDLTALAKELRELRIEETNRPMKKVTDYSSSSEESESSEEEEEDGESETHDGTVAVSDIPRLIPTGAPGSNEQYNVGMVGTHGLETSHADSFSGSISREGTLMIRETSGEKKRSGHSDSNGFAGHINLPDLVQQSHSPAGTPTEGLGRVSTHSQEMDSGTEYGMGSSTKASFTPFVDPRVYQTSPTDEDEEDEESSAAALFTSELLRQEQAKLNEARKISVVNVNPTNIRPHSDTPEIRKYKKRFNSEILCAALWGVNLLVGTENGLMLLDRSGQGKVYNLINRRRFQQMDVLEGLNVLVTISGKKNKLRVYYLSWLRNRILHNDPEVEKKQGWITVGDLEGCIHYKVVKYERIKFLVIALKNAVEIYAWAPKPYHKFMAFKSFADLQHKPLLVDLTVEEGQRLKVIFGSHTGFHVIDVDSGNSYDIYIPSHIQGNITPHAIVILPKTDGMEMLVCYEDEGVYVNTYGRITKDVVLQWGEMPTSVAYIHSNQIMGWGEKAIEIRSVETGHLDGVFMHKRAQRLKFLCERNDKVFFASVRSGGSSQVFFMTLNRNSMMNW", "chain of UniProt P0C1S8 (whole entry, looked up)": "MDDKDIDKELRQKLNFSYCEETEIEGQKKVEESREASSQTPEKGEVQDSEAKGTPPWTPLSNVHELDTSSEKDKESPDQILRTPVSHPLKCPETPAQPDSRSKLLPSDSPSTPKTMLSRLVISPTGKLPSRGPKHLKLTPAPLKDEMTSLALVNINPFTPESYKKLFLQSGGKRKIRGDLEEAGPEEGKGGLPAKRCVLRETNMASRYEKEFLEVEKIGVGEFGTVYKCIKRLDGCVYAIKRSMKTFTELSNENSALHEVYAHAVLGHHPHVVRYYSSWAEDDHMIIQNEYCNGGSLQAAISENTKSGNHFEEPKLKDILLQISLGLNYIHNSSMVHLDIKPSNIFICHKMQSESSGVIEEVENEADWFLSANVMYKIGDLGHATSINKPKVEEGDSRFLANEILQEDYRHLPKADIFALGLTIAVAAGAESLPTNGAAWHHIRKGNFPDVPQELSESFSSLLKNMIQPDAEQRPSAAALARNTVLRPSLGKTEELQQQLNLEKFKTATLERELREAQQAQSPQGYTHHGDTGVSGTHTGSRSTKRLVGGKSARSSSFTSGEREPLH", "chain of UniProt P27448 (whole entry, looked up)": "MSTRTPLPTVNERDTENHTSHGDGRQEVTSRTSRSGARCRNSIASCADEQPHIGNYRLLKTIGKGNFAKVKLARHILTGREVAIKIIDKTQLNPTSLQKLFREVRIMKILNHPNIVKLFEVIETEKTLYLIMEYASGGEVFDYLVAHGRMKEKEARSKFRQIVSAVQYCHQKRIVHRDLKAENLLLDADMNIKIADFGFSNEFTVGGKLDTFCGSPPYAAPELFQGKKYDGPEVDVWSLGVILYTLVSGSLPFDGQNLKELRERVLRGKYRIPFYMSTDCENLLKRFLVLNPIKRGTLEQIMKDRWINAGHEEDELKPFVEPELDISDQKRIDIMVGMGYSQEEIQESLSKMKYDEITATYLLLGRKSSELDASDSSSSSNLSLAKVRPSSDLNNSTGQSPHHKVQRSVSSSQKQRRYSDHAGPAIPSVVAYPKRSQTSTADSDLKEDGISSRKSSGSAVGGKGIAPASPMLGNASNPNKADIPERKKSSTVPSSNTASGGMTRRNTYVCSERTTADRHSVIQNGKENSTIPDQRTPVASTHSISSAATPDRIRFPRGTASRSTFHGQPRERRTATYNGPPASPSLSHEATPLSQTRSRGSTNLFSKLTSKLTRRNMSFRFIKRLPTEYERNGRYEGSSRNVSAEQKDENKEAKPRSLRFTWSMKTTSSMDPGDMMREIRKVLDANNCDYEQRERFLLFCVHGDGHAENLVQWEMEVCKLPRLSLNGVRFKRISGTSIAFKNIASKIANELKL", "chain of UniProt P0C264 (whole entry, looked up)": "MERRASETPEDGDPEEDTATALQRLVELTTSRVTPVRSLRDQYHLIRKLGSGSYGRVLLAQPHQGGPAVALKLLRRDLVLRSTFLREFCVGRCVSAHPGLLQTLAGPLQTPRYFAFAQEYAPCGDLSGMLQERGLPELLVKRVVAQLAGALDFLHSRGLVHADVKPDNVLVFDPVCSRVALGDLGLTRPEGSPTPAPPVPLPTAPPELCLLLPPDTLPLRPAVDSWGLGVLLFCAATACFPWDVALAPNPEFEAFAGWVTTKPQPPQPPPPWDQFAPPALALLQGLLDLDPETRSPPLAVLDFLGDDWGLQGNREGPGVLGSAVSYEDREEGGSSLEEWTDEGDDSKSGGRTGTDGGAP"}
{"data": "Set 1", "target": "RNA binding protein fox-1 homolog 2, RRM domain, GST-SBP tag (RBFOX2, Homo sapiens, UniProt O43251-10, residues 100-194)", "technique": "RNA Bind-n-Seq", "molecule type": "RNA", "medium": "in vitro", "concentration": "365 nM", "notes": "natural RNA segment, single round, ends assumed", "baseline": "no-protein control", "direction": "higher = stronger binding", "constant ends, left off below": "GGGAGUUCUACAGUCCGACGAUC … UGGAAUUCUCGGGUGCCAA", "Target sequence (chain)": "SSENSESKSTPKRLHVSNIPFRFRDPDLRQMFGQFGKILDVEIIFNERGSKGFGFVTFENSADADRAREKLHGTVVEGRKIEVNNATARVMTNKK"}
{"Sequence": "AAACUCAGAAGAAAAGCAGGCUUAGCUAAGAGAUUUUCACUAUUAACCUGUUUUUAUUAGAUCAGCGAAGACAGUCAUGCAUCGCUUAAUGAUGGGGAUGCAUUCUGAGA", "RBNS enrichment (R)": 0.398}
{"Sequence": "CAGGCUUUGUGUGUUGCAUAUUUAAUAUUUCUACUACCACCGUAUGUCAACUGGGUAAAGCCUUCCAGAGCUCUCUAAAUACCUGAAAGACUUAAGCCUUUUUUUAAGUA", "RBNS enrichment (R)": 0.452}
{"Sequence": "UCCUGUGGAGGGAGGAGGGUGUACGUUCGUUUACUAUGGAUAGUUUUUCCUUUGAAUUAAAUUGUAGCGUGUCAGGCUUUCUUUUUUCUUUUCUUUUCCUUUUUUUAAAC", "RBNS enrichment (R)": 1.18}
{"Sequence": "CGAGCUUGUUUUAAAGCAGAGACUGAAUAGAAAGUUGUAUGUUUUAGCAUAAACUAAUUCCUUUUGAGUUUGUAAAUCAUUUGUACCCAGAAUGUAUUAUAAUAUAUUGC", "RBNS enrichment (R)": 2.01}
{"Sequence": "ACAUGGAGUGGUUCAGCGCGGCCUGGGUGCCUGGCGGACAGAACUUCAGAGACCACGCAGCCUUCCUUCGAAGACGCACCUGCCCAGCCCAGCCCAGGGGUGCCGUGGAG", "RBNS enrichment (R)": 0.359}
{"Sequence": "UGCUGACAGCCACUUCCGUGUCCCCUUUCUGCUCGAAGGAUGAGGAUACCUUGGGCAUCAGCUCCCCGGCUGCCCUUUUCACCCACCUGCUGGAGGGGGGUGGUGAGCCA", "RBNS enrichment (R)": 0.274}
{"Sequence": "UCCUUUAAUUUUUUUUUAACAGAAGGGUAUCAGAGUGGAGGACCUAGAUUACGCUACCUGUGUUUGAAAAUAUUGCGCUUUGCCUAACCUUCGGUGGAAUGUAUUGUUUC", "RBNS enrichment (R)": 0.853}
{"Sequence": "UGCACCCUAUUCAGGUCAGGGACACUGCCACCUCAUGGUCUGAUUCAGGGGCAUUUUUUUUUUUAGCCAGACUCUUUCCAAUCUCCUCCUUUCCUCCCAAGUCCACUUUA", "RBNS enrichment (R)": 0.516}
{"data": "Set 2", "SMILES": "CCCCN(CCCC)C(=O)CN1C[C@H](c2cc(OC)c3c(c2)OCO3)[C@@H](C(=O)O)[C@@H]1CC(C)(C)CCC", "effect on": "cell-free assay", "technique": "competition with immobilised ligand", "concentration": "1 µM"}
{"target": "FGR (Homo sapiens, UniProt P09769)", "remaining binding": "100%"}
{"target": "Tyrosine-protein kinase ABL1, phosphorylated (ABL1, Homo sapiens, UniProt P00519, F317L)", "remaining binding": "96.7%"}
{"target": "SBK3 (Homo sapiens, UniProt P0C264)", "remaining binding": "100%"}
{"target": "STK17A (Homo sapiens, UniProt Q9UEE5)", "remaining binding": "100%"}
{"target": "WEE2 (Homo sapiens, UniProt P0C1S8)", "remaining binding": "100%"}
{"target": "MAST1 (Homo sapiens, UniProt Q9Y2H9)", "remaining binding": "100%"}
{"target": "IRAK4 (Homo sapiens, UniProt Q9NWZ3)", "remaining binding": "67.5%"}
{"target": "GRK7 (Homo sapiens, UniProt Q8WTQ7)", "remaining binding": "98.3%"}
{"target": "TNIK (Homo sapiens, UniProt Q9UKE5)", "remaining binding": "100%"}
{"target": "EGFR (Homo sapiens, UniProt P00533, G719S)", "remaining binding": "100%"}
{"target": "RIPK2 (Homo sapiens, UniProt O43353)", "remaining binding": "100%"}
{"target": "CSK (Homo sapiens, UniProt P41240)", "remaining binding": "100%"}
{"target": "RET (Homo sapiens, UniProt P07949, V804L)", "remaining binding": "100%"}
{"target": "MARK3 (Homo sapiens, UniProt P27448)", "remaining binding": "98.7%"}
{"target": "Mast/stem cell growth factor receptor Kit, autoinhibited (KIT, Homo sapiens, UniProt P10721)", "remaining binding": "92.3%"}
{"target": "ERBB2 (Homo sapiens, UniProt P04626)", "remaining binding": "95.6%"}
{"data": "Set 3", "host": "human", "medium": "microsomes or S9", "concentration": "2 µM", "time": "0.5 h"}
{"SMILES": "CCc1ccc(/C=N/n2c(C)nnc2-n2nc(C)cc2C)cc1", "remaining compound": "4.17%"}
{"SMILES": "O=C(c1c(F)cccc1F)N(Cc1n[nH]c(=O)[nH]1)c1ccccc1", "remaining compound": "70.7%"}
{"SMILES": "Cc1ccc2c(c1)ncc1c(-c3ccccc3)nn(-c3cccc(C)c3C)c12", "remaining compound": "103%"}
{"SMILES": "CC(=O)Nc1ccc(Nc2ncnc3c2cnn3-c2cccc(C)c2)cc1", "remaining compound": "80.7%"}
{"data": "Further values, each from its own experiment"}
{"Structure (SMILES)": "CO[C@H]1/C=C/O[C@@]2(C)Oc3c(C)c(O)c4c(O)c(c5c(nc6cc(C)ccn65)c4c3C2=O)NC(=O)/C(C)=C\\C=C\\[C@H](C)[C@H](O)[C@@H](C)[C@@H](O)[C@@H](C)[C@H](OC(C)=O)[C@@H]1C", "target or system": "Sarcocystis neurona", "assay": "parasite activity", "setting": "10 µM, 96 h", "endpoint": "activity class", "value": "inactive"}
{"Structure (SMILES)": "CC(C)n1cnc(-c2ccc(F)cc2)c1-c1ncc(C(=O)Nc2ccc(N3CCN(C)CC3)cc2)[nH]1", "assay": "phase 2a clinical trial", "system": "patients with idiopathic pulmonary fibrosis", "setting": "30 mg once daily", "endpoint": "patients with weight decreased TEAE", "value": "0%"}
{"Structure (SMILES)": "COC(=O)Nc1nc2cc(C(=O)c3ccc(F)cc3)ccc2[nH]1", "target or system": "Sarcocystis neurona", "assay": "parasite activity", "setting": "10 µM, 96 h", "endpoint": "activity class", "value": "inactive"}
{"Structure (SMILES)": "Nc1ncnc2c1ncn2C1OC(C(=O)N2CCN(CC(=O)Nc3cccc4c3CNC4=O)CC2)C(O)C1O (stereo not drawn)", "target or system": "mouse MPNST tumor cells", "assay": "high-content nuclear imaging, measured: cell number", "setting": "10 µM, 12 h, mean of 2 replicates", "how to read": "baseline: plate mean, higher = more cells", "endpoint": "nuclei count", "value": "0.364 z-score"}
{"Structure (SMILES)": "C[C@H](CCC(=O)O)[C@H]1CC[C@H]2[C@@H]3[C@@H](O)C[C@@H]4C[C@H](O)CC[C@]4(C)[C@H]3CC[C@]12C", "target or system": "Sarcocystis neurona", "assay": "parasite activity", "setting": "10 µM, 96 h", "endpoint": "activity class", "value": "inactive"}
{"note": "For quick reference, copied from above (further values, each from its own experiment):"}
{"Structure (SMILES)": "Nc1ncnc2c1ncn2C1OC(C(=O)N2CCN(CC(=O)Nc3cccc4c3CNC4=O)CC2)C(O)C1O (stereo not drawn)", "target or system": "mouse MPNST tumor cells", "assay": "high-content nuclear imaging, measured: cell number", "setting": "10 µM, 12 h, mean of 2 replicates", "how to read": "baseline: plate mean, higher = more cells", "endpoint": "nuclei count", "value": "0.364 z-score"}
{"Structure (SMILES)": "CC(C)n1cnc(-c2ccc(F)cc2)c1-c1ncc(C(=O)Nc2ccc(N3CCN(C)CC3)cc2)[nH]1", "assay": "phase 2a clinical trial", "system": "patients with idiopathic pulmonary fibrosis", "setting": "30 mg once daily", "endpoint": "patients with weight decreased TEAE", "value": "0%"}
{"Structure (SMILES)": "COC(=O)Nc1nc2cc(C(=O)c3ccc(F)cc3)ccc2[nH]1", "target or system": "Sarcocystis neurona", "assay": "parasite activity", "setting": "10 µM, 96 h", "endpoint": "activity class", "value": "inactive"}
{"Structure (SMILES)": "CO[C@H]1/C=C/O[C@@]2(C)Oc3c(C)c(O)c4c(O)c(c5c(nc6cc(C)ccn65)c4c3C2=O)NC(=O)/C(C)=C\\C=C\\[C@H](C)[C@H](O)[C@@H](C)[C@@H](O)[C@@H](C)[C@H](OC(C)=O)[C@@H]1C", "target or system": "Sarcocystis neurona", "assay": "parasite activity", "setting": "10 µM, 96 h", "endpoint": "activity class", "value": "inactive"}
